# Experimental data of several laboratories.
# Protocols differ between the studies behind these lines. “And” joins repeats or separate records; there may be more than shown. Numbers after ± are the reported error.
# RFWD3: RFWD3 (Homo sapiens, UniProt Q6PCD5)
# Chain of UniProt Q6PCD5 (whole entry, looked up): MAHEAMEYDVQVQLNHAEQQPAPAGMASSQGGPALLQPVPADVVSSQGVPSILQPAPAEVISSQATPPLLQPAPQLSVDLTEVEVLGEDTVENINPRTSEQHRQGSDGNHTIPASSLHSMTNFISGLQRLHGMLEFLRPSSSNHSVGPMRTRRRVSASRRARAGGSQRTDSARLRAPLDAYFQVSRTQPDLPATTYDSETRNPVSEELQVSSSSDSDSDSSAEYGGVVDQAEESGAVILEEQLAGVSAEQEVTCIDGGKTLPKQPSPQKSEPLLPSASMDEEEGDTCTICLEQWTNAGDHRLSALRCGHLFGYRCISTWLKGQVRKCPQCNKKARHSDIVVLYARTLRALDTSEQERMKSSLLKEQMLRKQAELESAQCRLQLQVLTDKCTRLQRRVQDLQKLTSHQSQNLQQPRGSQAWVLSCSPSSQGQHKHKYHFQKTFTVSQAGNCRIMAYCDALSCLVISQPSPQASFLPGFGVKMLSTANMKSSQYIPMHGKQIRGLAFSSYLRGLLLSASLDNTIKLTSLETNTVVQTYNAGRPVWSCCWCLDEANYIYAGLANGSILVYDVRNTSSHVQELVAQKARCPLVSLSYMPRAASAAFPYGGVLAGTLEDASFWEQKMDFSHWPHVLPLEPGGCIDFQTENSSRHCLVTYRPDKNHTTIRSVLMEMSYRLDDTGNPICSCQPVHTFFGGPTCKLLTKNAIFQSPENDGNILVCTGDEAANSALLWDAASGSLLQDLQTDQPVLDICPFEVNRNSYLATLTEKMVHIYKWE
# CAMK2B: Calcium/calmodulin-dependent protein kinase type II subunit beta (CAMK2B, Homo sapiens, UniProt Q13554)
# Chain of UniProt Q13554 (whole entry, looked up): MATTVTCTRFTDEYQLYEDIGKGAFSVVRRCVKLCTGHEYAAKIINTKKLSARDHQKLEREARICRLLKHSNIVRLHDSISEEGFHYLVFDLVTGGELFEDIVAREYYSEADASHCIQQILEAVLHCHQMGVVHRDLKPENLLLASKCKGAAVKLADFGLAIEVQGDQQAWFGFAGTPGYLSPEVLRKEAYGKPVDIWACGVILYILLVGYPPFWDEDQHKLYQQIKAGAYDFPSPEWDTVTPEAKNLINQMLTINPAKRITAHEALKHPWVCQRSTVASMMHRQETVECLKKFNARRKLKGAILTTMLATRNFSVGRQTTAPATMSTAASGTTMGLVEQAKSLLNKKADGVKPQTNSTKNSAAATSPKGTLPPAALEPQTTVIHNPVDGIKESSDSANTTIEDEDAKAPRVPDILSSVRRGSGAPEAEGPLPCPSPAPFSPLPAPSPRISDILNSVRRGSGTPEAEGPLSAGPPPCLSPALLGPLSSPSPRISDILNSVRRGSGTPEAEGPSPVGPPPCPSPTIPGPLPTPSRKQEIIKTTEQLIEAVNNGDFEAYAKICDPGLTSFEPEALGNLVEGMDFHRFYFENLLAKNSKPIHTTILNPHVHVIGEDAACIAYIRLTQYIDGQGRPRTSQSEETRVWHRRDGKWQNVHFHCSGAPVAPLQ
# HTR7: 5-hydroxytryptamine receptor 7 (HTR7, Homo sapiens, UniProt P34969)
# Chain of UniProt P51575 (whole entry, unmodified, looked up): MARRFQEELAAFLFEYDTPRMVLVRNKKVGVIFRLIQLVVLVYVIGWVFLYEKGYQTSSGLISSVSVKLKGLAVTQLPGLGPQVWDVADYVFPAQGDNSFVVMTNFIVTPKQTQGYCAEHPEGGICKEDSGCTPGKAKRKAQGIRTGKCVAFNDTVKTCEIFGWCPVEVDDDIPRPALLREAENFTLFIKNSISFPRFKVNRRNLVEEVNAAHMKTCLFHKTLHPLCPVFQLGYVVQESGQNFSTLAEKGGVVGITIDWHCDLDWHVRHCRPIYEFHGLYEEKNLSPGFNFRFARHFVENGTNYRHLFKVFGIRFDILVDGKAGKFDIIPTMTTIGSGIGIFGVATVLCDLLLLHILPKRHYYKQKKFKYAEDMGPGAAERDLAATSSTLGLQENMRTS
# Chain of UniProt P34969 (whole entry, looked up): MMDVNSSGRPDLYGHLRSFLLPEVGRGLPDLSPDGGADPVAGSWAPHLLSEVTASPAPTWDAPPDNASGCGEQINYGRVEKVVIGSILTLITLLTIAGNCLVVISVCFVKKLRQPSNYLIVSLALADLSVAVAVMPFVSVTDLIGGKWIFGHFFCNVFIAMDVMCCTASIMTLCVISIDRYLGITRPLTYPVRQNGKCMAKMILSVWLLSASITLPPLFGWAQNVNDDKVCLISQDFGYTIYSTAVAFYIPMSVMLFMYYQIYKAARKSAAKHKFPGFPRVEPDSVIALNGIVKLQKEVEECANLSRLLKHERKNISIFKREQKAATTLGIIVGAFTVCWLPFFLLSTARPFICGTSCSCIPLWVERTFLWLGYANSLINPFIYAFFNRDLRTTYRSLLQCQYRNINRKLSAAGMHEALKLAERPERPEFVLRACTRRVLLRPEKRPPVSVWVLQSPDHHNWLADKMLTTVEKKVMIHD
# Chain of UniProt O76090 (whole entry, unmodified, looked up): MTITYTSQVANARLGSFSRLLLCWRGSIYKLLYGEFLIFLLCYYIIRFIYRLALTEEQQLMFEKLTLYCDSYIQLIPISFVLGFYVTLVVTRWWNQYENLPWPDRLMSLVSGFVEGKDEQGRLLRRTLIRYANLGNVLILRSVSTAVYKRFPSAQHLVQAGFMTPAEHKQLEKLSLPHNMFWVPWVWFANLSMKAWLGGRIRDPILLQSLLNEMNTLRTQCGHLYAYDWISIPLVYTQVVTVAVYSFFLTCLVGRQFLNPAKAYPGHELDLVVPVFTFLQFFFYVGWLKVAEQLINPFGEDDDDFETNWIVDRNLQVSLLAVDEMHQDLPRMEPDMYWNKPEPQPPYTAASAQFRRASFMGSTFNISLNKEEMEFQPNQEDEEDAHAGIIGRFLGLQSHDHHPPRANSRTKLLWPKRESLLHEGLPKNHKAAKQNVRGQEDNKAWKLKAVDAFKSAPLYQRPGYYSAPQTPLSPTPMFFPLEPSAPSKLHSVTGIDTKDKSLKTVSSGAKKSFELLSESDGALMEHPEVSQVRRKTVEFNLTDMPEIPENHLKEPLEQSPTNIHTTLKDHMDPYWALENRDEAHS
# Chain of UniProt Q64663 (whole entry, unmodified, looked up): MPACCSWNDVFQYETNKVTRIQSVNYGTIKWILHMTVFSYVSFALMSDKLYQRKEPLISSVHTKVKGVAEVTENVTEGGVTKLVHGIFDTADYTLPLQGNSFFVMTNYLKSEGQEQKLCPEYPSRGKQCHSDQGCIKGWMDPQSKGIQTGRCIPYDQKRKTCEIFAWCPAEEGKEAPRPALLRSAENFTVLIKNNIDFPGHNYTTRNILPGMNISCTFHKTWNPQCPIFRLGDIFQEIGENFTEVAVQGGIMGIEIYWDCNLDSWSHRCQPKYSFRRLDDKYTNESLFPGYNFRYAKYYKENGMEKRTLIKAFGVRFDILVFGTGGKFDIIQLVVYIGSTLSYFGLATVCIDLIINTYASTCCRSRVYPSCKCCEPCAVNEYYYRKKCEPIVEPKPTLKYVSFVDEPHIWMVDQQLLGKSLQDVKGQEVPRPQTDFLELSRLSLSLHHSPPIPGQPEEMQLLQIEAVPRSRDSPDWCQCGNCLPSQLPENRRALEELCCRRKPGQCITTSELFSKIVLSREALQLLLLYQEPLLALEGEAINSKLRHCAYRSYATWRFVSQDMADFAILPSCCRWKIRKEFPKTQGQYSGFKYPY
# Chain of UniProt Q62351 (whole entry, looked up): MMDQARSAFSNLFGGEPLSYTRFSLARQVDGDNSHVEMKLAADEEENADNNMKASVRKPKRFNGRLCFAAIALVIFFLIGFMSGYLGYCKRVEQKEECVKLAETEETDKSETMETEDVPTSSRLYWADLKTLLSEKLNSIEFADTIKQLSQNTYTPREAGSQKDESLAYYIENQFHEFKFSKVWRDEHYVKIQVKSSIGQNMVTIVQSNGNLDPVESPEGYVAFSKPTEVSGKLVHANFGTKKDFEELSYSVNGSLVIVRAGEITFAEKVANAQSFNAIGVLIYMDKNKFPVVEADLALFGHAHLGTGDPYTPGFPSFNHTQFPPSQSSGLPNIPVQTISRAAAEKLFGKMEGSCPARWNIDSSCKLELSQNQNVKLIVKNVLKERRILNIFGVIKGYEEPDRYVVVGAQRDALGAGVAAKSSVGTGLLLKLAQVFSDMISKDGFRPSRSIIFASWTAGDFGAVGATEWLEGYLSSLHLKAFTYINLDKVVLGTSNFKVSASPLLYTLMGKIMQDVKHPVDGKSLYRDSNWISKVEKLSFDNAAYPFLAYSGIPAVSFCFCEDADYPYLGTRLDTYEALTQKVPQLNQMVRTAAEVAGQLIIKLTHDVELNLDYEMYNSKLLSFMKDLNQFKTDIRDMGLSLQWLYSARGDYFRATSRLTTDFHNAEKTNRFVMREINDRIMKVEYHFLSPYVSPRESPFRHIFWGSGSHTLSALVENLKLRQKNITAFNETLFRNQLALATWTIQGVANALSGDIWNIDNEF
# Chain of UniProt O35678 (whole entry, looked up): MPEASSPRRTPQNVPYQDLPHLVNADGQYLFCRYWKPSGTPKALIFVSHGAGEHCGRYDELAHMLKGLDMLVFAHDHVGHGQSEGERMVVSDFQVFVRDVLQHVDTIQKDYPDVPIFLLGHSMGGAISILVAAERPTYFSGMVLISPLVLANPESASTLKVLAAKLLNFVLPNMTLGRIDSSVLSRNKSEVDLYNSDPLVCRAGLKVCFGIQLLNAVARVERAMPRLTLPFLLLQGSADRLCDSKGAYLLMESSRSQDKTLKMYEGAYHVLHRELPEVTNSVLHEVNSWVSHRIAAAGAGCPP
# Chain of UniProt P48061 (whole entry, looked up): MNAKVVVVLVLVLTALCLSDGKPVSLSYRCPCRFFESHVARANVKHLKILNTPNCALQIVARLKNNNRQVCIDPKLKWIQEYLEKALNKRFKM
# Chain of UniProt P00441 (whole entry, unmodified, looked up): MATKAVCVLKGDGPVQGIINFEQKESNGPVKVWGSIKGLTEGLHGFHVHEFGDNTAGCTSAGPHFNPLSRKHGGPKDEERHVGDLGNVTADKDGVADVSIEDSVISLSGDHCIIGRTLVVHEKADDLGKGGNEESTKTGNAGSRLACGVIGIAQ
Structure (SMILES),target,assay,test system,setting,scale,measurement,result
NC(=O)C1=CN([C@@H]2O[C@H](COP(=O)(O)OP(=O)(O)OC[C@H]3O[C@@H](n4cnc5c(N)ncnc54)[C@H](O)[C@@H]3O)[C@@H](O)[C@H]2O)C=CC1,"FSP1, ancestral",substrate,,co-substrate fixed,,Km,13.9 ± 2.39 µM
O=C(O)CSc1nc(SCC(=O)O)nc(-c2ccc(N3CCOCC3)cc2)n1,"Stromal cell-derived factor 1 (CXCL12, Homo sapiens, UniProt P48061)",,,,,ligand efficiency,0.17
Nc1ncnc2c1ncn2[C@@H]1O[C@H](COP(=O)(O)OP(=O)(O)OP(=O)(O)O)[C@@H](O)[C@H]1O,"P2X purinoceptor 7 (P2rx7, Rattus norvegicus, UniProt Q64663, I214G)","ion current, agonist, two-electrode voltage clamp",Xenopus laevis oocytes,3.7 µM,baseline: highest concentration response,normalized current,0
Cc1cccc(N2CC(C(=O)O)CC2=O)c1 (stereo not drawn),RFWD3,"binding, affinity selection mass spectrometry",,,baseline: other proteins in batch,log fold enrichment,-0.0706
CNc1ncc2c(/C=C/C(=O)N3CCC(OC)CC3)nn(Cc3cccc(C(F)(F)F)c3)c2n1,CAMK2B,"kinase activity, inhibitor",,1 µM,baseline: untreated control,remaining activity,97%
O=C(O)C1CCCNC1 (stereo not drawn),"Sodium- and chloride-dependent taurine transporter (SLC6A6, Homo sapiens, UniProt P31641, G62A)","binding, microscale thermophoresis",,"7.81 µM, room temperature, with: 50 nM labelled protein",higher = more binding,normalised MST signal,0.201
CN1CCN(c2cc(-c3ccncc3)c(-c3ccc4ccccc4c3)nn2)CC1,"Thromboxane A2 receptor (TBXA2R, Homo sapiens, UniProt P21731)","agonist, FLIPR",,12.5 µM,,activation,-2.9%
CC[C@@H](C)[C@@H](NC(=O)[C@@H](Cc1ccc(O)cc1)NC(=O)[C@H]1CCCN1C(=O)[C@@H](CCCNC(=N)N)NC(=O)[C@H](N)Cc1c[nH]cn1)C(=O)N[C@H](C)C(=O)N[C@H](Cc1c[nH]cn1)C(=O)N[C@H](CCCNC(=N)N)C(=O)N[C@@H](C(=O)N[C@H](Cc1ccc(O)cc1)C(=O)N[C@H](CO)C(=O)N[C@H](Cc1ccccc1)C(N)=O)C(C)C,"Transferrin receptor protein 1 (Tfrc, Mus musculus, UniProt Q62351)",flow cytometry,B16,"24 h, unit not given",baseline: 0 h,surface expression,0.53 and 0.55
Nc1ncnc2c1ncn2[C@@H]1O[C@H](COP(=O)(O)CP(=O)(O)OP(=O)(O)O)[C@@H](O)[C@H]1O,"P2X purinoceptor 1 (P2RX1, Homo sapiens, UniProt P51575, R292A)",calcium influx,,316 nM,baseline: ionomycin response,calcium influx,0.597% and 0.0554% and 0%
N[C@@H](CCC(=O)O)C(=O)O,"uncharacterized protein (Ixodes scapularis, UniProt A0A0N9E2I2)","agonist, two-electrode voltage clamp",Xenopus oocytes,100 µM,,current amplitude,50 to 400 nA
CC1(C)CC2(C)OC(=O)NC2(C)c2ccccc21 (stereo not drawn),RFWD3,"binding, affinity selection mass spectrometry",,,baseline: other proteins in batch,fold enrichment,1.17
COc1cc(-c2cncc3c2CN(C)Cc2cc(N4CCNCC4)ccc2-3)cc(OC)c1OC,CAMK2B,kinase activity,,"1 µM, human enzyme, with: ATP 10 µM",baseline: DMSO control,remaining activity,106%
N#Cc1cnn(C(=O)N2CCN(C(c3ccc(OCc4ccccc4)cc3)c3ccc(OCc4ccccc4)cc3)CC2)c1,"Monoglyceride lipase (Mgll, Mus musculus, UniProt O35678)",competitive ABPP,mouse brain proteome,,baseline: Mgll over ABHD6,selectivity ratio,> 1000 fold
[O-][S+]1CCCCS1 (stereo not drawn),"Superoxide dismutase [Cu-Zn] (SOD1, Homo sapiens, UniProt P00441, G94A)",LC-MS,brain homogenate,"1 µM, 1 h, 37 °C",,SOD1 dimer fraction,0.35%
O=c1nc(SCc2ccc(C(F)(F)F)cc2)nc(SCc2csc3ccc(Cl)cc23)[nH]1,"DNA topoisomerase 2-alpha (TOP2A, Homo sapiens, UniProt P11388)",DNA relaxation,,"15.6 µM, replicate 2",,relaxed DNA,0.5%
COc1cc(O)c2c(c1)oc(=O)c1c3cc(O)c(O)cc3oc21,"Alpha-glucosidase MAL12 (MAL12, Saccharomyces cerevisiae S288c, UniProt P53341)",fluorescence quenching,,310 K,,ΔH,-25 kcal/mol
O=C(O)/C=C/C(=O)O,"Uncharacterized protein (Pelagibacter ubique, UniProt Q4FKX4)",differential scanning fluorimetry,Candidatus Pelagibacter ubique,in-house screen,,thermal shift,7.11 °C
CC[C@@H]1[C@H](F)C(=O)N[C@@H]1COc1nccc2cc(C(N)=O)c(OC)cc12,"Tyrosine-protein kinase Fer (FER, Homo sapiens, UniProt P16591)","ATP-site probe binding, ActivX profiling",THP-1 cell lysate,"0.2 mM, Lys1 site",,inhibition,-7.6%
COc1cccc(OC[C@H]2CN(CCN3CCc4ccccc43)CCO2)c1,HTR7,radioligand binding,,"concentration not given, with: [3H]LSD",,inhibition,45.8%
CCCCC[S+]([O-])c1n[nH]c(N)n1 (stereo not drawn),"Histone acetyltransferase type B catalytic subunit (Homo sapiens, UniProt O14929)","binding, affinity selection mass spectrometry",,,baseline: other proteins in batch,fold enrichment,0.874
Cc1ccc(OC[C@@H]2CN(CCN3CCc4ccccc43)CCO2)cn1,HTR7,radioligand binding,,"concentration not given, with: [3H]LSD",,inhibition,23.5%
Nc1ccc(C(=O)O)cc1,"BEST1, with wild-type BEST1 (Homo sapiens, UniProt O76090, R218H)","ion current, whole-cell patch clamp",HEK293 co-expressing mutant and wild-type,"concentration not given, voltage 100 mV",,current density,7.13 pA/pF and 23.1 pA/pF and 12.6 pA/pF and 8.72 pA/pF and 28.1 pA/pF and 21.1 pA/pF and 50.9 pA/pF and 23.7 pA/pF
Clc1cccc(OC[C@@H]2CN(CCN3CCc4ccccc43)CCO2)c1,"5-hydroxytryptamine receptor 2A (HTR2A, Homo sapiens, UniProt P28223)",radioligand binding,,"concentration not given, with: [3H]ketanserin",,inhibition,78%
CCC1(O)CCCN(C(=O)c2ccc(-c3ccc(F)c(NC(=O)CCl)c3)cc2)C1 (stereo not drawn),"DNA dC->dU-editing enzyme APOBEC-3B, C-terminal domain (Homo sapiens, UniProt Q9UH17)","covalent modifier, intact protein mass spectrometry, measured: adduct +26104 Da",,"250 µM, 1 h, 10-fold molar excess",,protein adduct,0%
c1ccc(OC[C@@H]2CN(CCN3CCc4ccccc43)CCO2)cc1,HTR7,radioligand binding,,"concentration not given, with: [3H]LSD",,inhibition,74.4%
O=C(COP(=O)(O)O)[C@@H](O)[C@H](O)[C@H](O)COP(=O)(O)O,"Actin, aortic smooth muscle (ACTA2, Homo sapiens, UniProt P62736)","thermal proteome profiling, measured: ACTA2",HepG2 cell lysate,"concentration not given, 57 over 37 °C, mean",baseline: compound over control,thermal stability ratio,0.62
N#Cc1ccn2c(-c3ccncc3)c(-c3ccc(F)cc3)nc2c1,"Protein kinase C-like 1 (Candida albicans, UniProt P43057)","kinase binding, competitor, MIB/MS competition, measured: PKC1",Candida albicans cell lysate,1 µM,baseline: DMSO,log2 fold change,-0.495

# Repeated from above:
Structure (SMILES),target,assay,test system,setting,scale,measurement,result
Cc1ccc(OC[C@@H]2CN(CCN3CCc4ccccc43)CCO2)cn1,HTR7,radioligand binding,,"concentration not given, with: [3H]LSD",,inhibition,23.5%
